Measurements collected from several papers.
A part holds a random share of what one study measured.

Study 1
Target: PTGES3 (Homo sapiens, UniProt Q15185)
Technique: EMSA
Molecule type: double-stranded DNA, one strand shown
Each molecule: dsDNA
Target sequence (chain): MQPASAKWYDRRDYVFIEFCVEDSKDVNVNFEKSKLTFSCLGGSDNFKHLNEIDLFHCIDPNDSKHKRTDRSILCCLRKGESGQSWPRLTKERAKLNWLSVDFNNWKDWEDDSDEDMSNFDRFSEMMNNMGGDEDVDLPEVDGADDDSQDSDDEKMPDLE
Sequence | binding
ACTCGGGGAGGAGAGGGAGGGATCAGACAGGAGAGTGGGGACTACCCCCTCTGCTCC | binds
CCCCGGTATCCCATCCAAGGCGATCAGTCCAGAACTGGCTCTCGGAAGCGCTCGGGC | no binding
CAGCCTTTCTTAACCTTACTCGCCCCAGTCTGTCCCGACGTGACTTCCTCGACCCTC | binds
CTGCATATAGAGCAGATATACAGCCTATTAAGCGTCGTCACTAAAACATAAAACATGT | no binding

Further values, each from its own experiment
xseA/xseB 1-456;1-80 H238A: xseA/xseB 1-456;1-80 H238A (Escherichia coli)
WRKY7 1-348: WRKY7 1-348 (Brassica napus, UniProt C5H9Z7)
T1: xseA/xseB 1-456;1-80 H238A (Escherichia coli); chain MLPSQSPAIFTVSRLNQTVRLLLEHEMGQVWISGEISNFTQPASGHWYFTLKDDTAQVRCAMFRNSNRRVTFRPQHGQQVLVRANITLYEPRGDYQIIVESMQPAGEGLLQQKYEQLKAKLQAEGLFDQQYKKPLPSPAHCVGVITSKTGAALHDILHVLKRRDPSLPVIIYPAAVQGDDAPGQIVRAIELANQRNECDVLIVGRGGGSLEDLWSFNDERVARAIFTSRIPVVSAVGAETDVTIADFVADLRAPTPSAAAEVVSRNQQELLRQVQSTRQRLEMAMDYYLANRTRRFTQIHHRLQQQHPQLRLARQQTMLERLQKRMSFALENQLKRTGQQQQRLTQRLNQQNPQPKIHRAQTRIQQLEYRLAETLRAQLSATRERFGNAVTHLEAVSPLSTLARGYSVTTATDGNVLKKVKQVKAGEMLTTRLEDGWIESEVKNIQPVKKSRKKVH; chain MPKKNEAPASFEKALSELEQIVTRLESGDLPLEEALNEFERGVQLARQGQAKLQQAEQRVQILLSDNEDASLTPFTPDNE
Sequence | target | technique | molecule type | binding
AGCGTGTTTTTTTTTTTTTTTTTTTTTTTTTTTTTTTTTTTTTTTTTTTTTTTTTTTTTTTTTTTTTTTTTTTTAGCGTG (ssDNA; circular) | T1, xseA/xseB 1-456;1-80 H238A (Escherichia coli) | mass photometry | single-stranded DNA | binds
GTGCTGGCCCATTGACTTTCTCTAAGTCCT (dsDNA) | WRKY7 1-348 | EMSA | double-stranded DNA, one strand shown | binds
GGATGGGACGTGGGC (ssDNA) | T1, xseA/xseB 1-456;1-80 H238A (Escherichia coli) | fluorescence anisotropy | single-stranded DNA | binds
TCAGCTATTTTGTGGACTTTGTGCGAGGAT (dsDNA) | WRKY7 1-348 | EMSA | double-stranded DNA, one strand shown | binds
DNA 1 GGATGGGACGTGGGCAGTAAGATGGACAGAAGACAGGTAGAATGACGGGTGCAGGGTAAA / DNA 2 TTTACCCTGCACCCGTCATTCTACCTGTCTTCTGT / DNA 3 CCATCTTACTGCCCACGTCCCATCC (dsDNA; nicked, blunt ends) | T1, xseA/xseB 1-456;1-80 H238A (Escherichia coli) | mass photometry | double-stranded DNA | binds
DNA 1 GGCTCGCTACGGCTATACGG / DNA 2 GATTCGTATCGCCTATACCG / DNA 3 CGGTATAGGCGATACGAATCTTTTTCCGTATAGCCGTAGCGAGCC (DNA; 5-nt gap, s/ds junctions) | RAD24/RFC2/RFC3/RFC4/RFC5/DDC1/MEC3/RAD17 (Saccharomyces cerevisiae) | cryo-EM |  | binds

A few entries again (study 1):
Sequence | binding
CAGCCTTTCTTAACCTTACTCGCCCCAGTCTGTCCCGACGTGACTTCCTCGACCCTC | binds
